Experimental data collected from several papers.
Numbered parts are unrelated; each lists some results of a single study. Positions count from the first letter of the parent shown.

Sample 1 — technique: DHFR PCA, deep sequencing; medium: yeast; with: (+)-ABA 0 µM; reference: wild-type fitted maximum; direction: higher = stronger binding; quantity: relative binding score
Target: ABI1, truncated, D143A, DHFR fusion (Arabidopsis thaliana)
Setting: methotrexate growth selection, single substitutions
Starting sequence: PYL1, truncated, DHFR fusion (Arabidopsis thaliana); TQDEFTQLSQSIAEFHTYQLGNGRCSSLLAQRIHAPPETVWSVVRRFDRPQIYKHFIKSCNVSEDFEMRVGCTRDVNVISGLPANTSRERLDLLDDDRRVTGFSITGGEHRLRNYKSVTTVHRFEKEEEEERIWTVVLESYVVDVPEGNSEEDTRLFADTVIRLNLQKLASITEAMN
I162T: 9.93%
T73E: 23.6%
R74K: 2.29%
F15R: -0.364%
V62G: -4.02%
E4W: 19.9%
Y141T: -3.91%
T135R: -8.86%
G21D: 20.3%
Q2D: 28%
S11W: 12.5%
T135C: 6%
Q2K: 21%
S27F: -0.74%
Q19R: 24.2%
N85E: 36%
V145S: -9.47%

Sample 2 — target: UBE2L6 UBC core domain (UniProt O14933); technique: yeast two-hybrid; medium: yeast; setting: mostly zero background; reference: not given; direction: higher = stronger interaction; quantity: lacZ reporter activity
Chain of UniProt O14933 (whole entry, looked up): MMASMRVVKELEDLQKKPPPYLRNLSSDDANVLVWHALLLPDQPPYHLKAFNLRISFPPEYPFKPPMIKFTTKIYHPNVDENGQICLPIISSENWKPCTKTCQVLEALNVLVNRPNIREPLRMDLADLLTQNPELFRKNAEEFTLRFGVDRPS
B1: TRIM22 RING domain (UniProt Q8IYM9); chain VKVDIEKEVTCPICLELLTEPLSLDCGHSFCQACITAKIKESVIISRGESSCPVCQTRFQPGNLRP
B2: MKRN2 RING domain (UniProt Q9H000); chain FAFQASQDKVCSICMEVILEKASASERRFGILSNCNHTYCLSCIRQWRCAKQFENPIIKSCPECRVISEFVIPSV
B3: TRIM26 RING domain (UniProt Q12899); chain PLRSLEEEVTCSICLDYLRDPVTIDCGHVFCRSCTTDVRPISGSRPVCPLCKKPFKKENIRP
B4: TRIM31 RING domain (UniProt Q9BZY9); chain FVNKLQEEVICPICLDILQKPVTIDCGHNFCLKCITQIGETSCGFFKCPLCKTSVRKNAIRF
B5: RLIM RING domain (UniProt Q9NVW2); chain SFGENDALKTCSVCITEYTEGNKLRKLPCSHEYHVHCIDRWLSENSTCPICRRAVLASGNRE
B6: DEF8 RING domain (UniProt Q6ZN54); chain AGRLGCSLTEIHTLFAKHIKLDCERCQAKGFVCELCREGDVLFPFDSHTSVCADCSAVFHRDCYYDNSTTCPKCARLSLRK
B7: RNF152 RING domain (UniProt Q8N8N0); chain ETLSQDSLLECQICFNYYSPRRRPKLLDCKHTCCSVCLQQMRTSQKDVRCPWCRGVTKLPPGFS
B1 (TRIM22 RING domain): 0
B2 (MKRN2 RING domain): 0
YPEEVDDDLICHICLQALLDPLDTPCGHTYCTLCLTNFLVEKDFCPMDRKPLVLQHCKK (LNX1 RING domain (UniProt Q8TBB1)): 0
RYRQMEERITCPICIDSHIRLVFQCGHGACAPCGSALSACPICRQPIRDRIQIF (MIB2 RING domain (UniProt Q96AX9)): 0
B3 (TRIM26 RING domain): 0
YCEMGSTFQLCKICAENDKDVKIEPCGHLMCTSCLTAWQESDGQGCPFCRCEIKGTEPII (CBLB RING domain (UniProt Q13191)): 0
PEELAVNNDDCAICWDSMQAARKLPCGHLFHNSCLRSWLEQDTSCPTCRMSLNIADNNR (AMFR RING domain (UniProt Q9UKV5)): 0
B4 (TRIM31 RING domain): 0
AEADPLGRFTCPVCLEVYEKPVQVPCGHVFCSACLQECLKPKKPVCGVCRSALAPGVRAV (RNF114 RING domain (UniProt Q9Y508)): 0
LGTKLEAKYLCSACRNVLRRPFQAQCGHRYCSFCLASILSSGPQNCAACVHEGIYEEGIS (TRAF2 RING domain (UniProt Q12933)): 0
B5 (RLIM RING domain): 0
B6 (DEF8 RING domain): 0
B7 (RNF152 RING domain): 0

Sample 3 — technique: protein-binding microarray; form: double-stranded DNA, one strand shown; medium: in vitro; concentration: 250 nM; setting: 60-bp whole probe; with: salmon DNA 0.4 mg/ml; reference: random background probes; direction: higher = stronger binding; quantity: log fluorescence; shared flanks, not repeated: GCCTAGCAC … GTCTTGATTCGCTTGACGCTGCTG
Target: Interferon regulatory factor 7, full length, phosphomimetic (IRF7, Homo sapiens, UniProt Q92985, residues 1-503, S101K/S471D/S472D/S475D/S476D/S477D/S483D/S484D/S487D)
Residues (chain): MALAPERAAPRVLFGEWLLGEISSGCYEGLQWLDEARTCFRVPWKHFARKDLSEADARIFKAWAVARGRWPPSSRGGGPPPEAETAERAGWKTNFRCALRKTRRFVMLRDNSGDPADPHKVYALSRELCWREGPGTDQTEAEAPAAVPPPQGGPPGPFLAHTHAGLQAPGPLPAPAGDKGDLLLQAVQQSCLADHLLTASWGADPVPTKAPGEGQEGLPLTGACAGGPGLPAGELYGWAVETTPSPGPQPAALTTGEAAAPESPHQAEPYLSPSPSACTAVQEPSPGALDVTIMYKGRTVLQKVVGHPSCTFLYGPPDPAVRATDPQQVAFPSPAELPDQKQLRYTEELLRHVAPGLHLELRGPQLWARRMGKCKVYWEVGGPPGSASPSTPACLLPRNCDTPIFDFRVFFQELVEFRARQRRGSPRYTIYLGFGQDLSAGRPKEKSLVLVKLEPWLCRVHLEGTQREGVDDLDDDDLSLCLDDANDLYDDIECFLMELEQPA
TTCTCTTTCCTTCTTGATGCGTGCTAG: 1.95 z-score
TGCCATATTTATCTGCAAAGGTGCTAG: 0.512 z-score
GACGGTATGCTACTGCTGACGTGCTAG: -0.796 z-score
TCATTTCTATCTCTGTTACTGTGCTAG: 1.9 z-score
GTAGGTATCGGTCTCGGTTAGTGCTAG: 1.51 z-score
TTAGGTCTCGGAATCGGTTAGTGCTAG: 2.98 z-score
TCAATGATTTTTTTCATACTGTGCTAG: 0.152 z-score
TTAGGTATCGTTTTCGGTTAGTGCTAG: 7.03 z-score
GACGATCTGAGTCTCGAGACGTGCTAG: -0.124 z-score
GACGGTATCCTTCTCTTGACGTGCTAG: 0.106 z-score
GTAGGACTGCTTCTCCTTTAGTGCTAG: 0.341 z-score
TCATCTTTCCCTGCCCCATGGTGCTAG: 1.54 z-score
GACGGACTGGGACTGCGGACGTGCTAG: -0.771 z-score
TTAGTTATCGGGTTTCGGTTAGTGCTA: 6.79 z-score
GACGATTTCGACTTTCGGGACGTGCTA: 1.52 z-score
TCAGTTTCCATTTTCTGACTGTGCTAG: 8.36 z-score
GACGGCTCCCTTTTCCTGACGTGCTAG: 0.289 z-score
TCATAAATCTTTTTCCCACTGTGCTAG: 1.14 z-score
TTATTTTTTTTATTTATAAAGTGCTAG: 1.21 z-score

Sample 4 — target: CCNE2, cyclin fold, Cln2 fusion (human); technique: yeast growth competition, sequencing; medium: yeast; setting: weak parent motif; reference: not given; direction: higher = stronger binding; quantity: normalised enrichment score
Starting sequence: MICAL3 docking peptide (human); LQLRRQLSFSEDS; partner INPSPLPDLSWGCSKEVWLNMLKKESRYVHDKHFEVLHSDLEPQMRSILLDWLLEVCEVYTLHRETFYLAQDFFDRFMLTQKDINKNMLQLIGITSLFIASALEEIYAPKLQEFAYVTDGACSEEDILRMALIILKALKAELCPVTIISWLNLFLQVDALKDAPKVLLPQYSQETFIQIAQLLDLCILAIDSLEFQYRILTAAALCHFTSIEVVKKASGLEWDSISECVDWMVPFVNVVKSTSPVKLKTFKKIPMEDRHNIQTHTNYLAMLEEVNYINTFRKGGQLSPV
LQLRRQLTFSEDS [S8T]: 0.139
LQLRRQISFSEDS [L7I]: 0.337
LQLRRQLSFQEDS [S10Q]: 0.163
LRLRRQLSFSEDS [Q2R]: -0.0061
LQLRRQLSFSEES [D12E]: 0.412
LQLRTQLSFSEDS [R5T]: 0.0554
LQLRRQLSDSEDS [F9D]: -0.132
LQLIRQLSFSEDS [R4I]: 0.211
LQLRRQLPFSEDS [S8P]: 0.366
LQLRRQLSTSEDS [F9T]: -0.0781
LQCRRQLSFSEDS [L3C]: 2.76
LQLVRQLSFSEDS [R4V]: 0.0414
LQLRRQLSFSEGS [D12G]: 0.356
LQLRRQMSFSEDS [L7M]: 0.136
LQLRRQLSFSECS [D12C]: 0.789
LQLKRQLSFSEDS [R4K]: 0.271
LQLQRQLSFSEDS [R4Q]: -0.00322
LQLRRQLSMSEDS [F9M]: 0.0993
LQLRRQLSFSDDS [E11D]: 0.215
